# Results pooled from the literature.
# Values joined by “and” are separate records of one study, mostly repeats; a detail may differ. ± marks the error that the study gave.
# Gria1/Gria2: Glutamate receptor AMPA 1/2 (Gria1/Gria2, Rattus norvegicus, UniProt P19490+P19491)
# Chain of UniProt P19490 (whole entry, looked up): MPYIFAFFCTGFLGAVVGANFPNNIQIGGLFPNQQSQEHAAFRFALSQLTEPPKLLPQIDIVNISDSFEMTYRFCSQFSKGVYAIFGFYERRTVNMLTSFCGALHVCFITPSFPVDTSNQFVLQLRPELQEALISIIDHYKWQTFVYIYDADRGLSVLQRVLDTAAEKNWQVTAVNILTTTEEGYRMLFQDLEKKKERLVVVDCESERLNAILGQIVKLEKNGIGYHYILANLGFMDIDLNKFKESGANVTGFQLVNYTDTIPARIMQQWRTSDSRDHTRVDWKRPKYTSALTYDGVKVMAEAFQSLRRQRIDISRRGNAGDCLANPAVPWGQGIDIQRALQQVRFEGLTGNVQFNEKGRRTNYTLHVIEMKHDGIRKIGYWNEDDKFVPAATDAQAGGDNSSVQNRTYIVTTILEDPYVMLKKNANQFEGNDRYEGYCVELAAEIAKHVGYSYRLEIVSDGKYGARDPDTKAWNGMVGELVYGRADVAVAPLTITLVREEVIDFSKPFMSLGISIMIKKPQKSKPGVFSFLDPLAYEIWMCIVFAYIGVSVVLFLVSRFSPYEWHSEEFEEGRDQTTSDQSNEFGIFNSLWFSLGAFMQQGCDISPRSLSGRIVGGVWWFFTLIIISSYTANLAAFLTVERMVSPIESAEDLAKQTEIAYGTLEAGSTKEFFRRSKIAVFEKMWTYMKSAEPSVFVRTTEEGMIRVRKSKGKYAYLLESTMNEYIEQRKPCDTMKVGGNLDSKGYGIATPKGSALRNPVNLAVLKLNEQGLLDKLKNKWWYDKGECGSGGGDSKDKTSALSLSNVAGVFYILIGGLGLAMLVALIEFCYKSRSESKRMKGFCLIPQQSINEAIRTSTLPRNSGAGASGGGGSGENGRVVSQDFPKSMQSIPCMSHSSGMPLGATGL
# Chain of UniProt P19491 (whole entry, looked up): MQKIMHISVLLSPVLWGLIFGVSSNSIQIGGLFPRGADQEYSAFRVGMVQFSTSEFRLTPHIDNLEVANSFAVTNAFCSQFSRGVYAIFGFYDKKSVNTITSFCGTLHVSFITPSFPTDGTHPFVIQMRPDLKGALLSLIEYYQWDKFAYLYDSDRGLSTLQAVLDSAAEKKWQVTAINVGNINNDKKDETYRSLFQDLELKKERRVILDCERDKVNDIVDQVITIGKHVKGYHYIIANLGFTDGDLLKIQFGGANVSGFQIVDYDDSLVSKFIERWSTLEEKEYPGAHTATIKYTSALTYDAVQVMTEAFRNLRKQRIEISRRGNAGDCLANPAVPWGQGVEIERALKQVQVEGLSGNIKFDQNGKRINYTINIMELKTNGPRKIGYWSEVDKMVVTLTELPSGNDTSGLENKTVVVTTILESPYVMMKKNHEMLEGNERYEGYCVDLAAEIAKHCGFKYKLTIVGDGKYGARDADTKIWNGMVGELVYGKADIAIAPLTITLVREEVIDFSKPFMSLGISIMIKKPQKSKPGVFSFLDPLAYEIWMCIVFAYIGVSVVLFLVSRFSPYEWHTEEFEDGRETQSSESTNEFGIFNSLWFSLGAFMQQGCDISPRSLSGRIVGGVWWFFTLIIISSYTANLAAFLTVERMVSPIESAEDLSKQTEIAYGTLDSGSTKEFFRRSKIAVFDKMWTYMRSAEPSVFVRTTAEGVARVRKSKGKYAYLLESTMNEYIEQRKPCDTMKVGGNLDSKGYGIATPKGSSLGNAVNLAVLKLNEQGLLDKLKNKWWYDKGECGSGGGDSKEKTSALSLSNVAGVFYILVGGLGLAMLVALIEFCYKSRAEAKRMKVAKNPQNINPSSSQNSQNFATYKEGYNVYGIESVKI
# MAPK8: Mitogen-activated protein kinase 8 (MAPK8, Homo sapiens, UniProt P45983)
# Chain of UniProt P45983 (whole entry, looked up): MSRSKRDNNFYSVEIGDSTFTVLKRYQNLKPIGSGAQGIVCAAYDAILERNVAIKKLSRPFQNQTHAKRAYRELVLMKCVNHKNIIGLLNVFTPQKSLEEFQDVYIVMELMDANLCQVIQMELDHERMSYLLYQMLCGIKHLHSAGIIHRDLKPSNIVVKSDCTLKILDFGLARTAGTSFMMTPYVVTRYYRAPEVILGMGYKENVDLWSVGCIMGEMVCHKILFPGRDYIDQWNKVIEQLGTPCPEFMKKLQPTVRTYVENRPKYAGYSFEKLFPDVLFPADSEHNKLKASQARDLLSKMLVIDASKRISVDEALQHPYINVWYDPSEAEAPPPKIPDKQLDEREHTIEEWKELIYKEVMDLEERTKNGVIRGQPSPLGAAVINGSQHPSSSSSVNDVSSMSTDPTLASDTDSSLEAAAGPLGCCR
# Sodium- and chloride-dependent glycine transporter 2: Sodium- and chloride-dependent glycine transporter 2 (Homo sapiens, UniProt Q9Y345)
# Chain of UniProt Q7Z5P4 (whole entry, looked up): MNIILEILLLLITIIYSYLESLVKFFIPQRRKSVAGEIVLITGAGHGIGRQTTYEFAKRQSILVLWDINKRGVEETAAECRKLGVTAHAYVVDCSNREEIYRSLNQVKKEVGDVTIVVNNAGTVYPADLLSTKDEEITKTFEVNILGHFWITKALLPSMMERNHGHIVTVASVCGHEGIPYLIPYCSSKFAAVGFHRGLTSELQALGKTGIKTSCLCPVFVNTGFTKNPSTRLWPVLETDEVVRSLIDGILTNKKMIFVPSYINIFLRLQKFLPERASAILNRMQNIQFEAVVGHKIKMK
# Chain of UniProt O00206 (whole entry, looked up): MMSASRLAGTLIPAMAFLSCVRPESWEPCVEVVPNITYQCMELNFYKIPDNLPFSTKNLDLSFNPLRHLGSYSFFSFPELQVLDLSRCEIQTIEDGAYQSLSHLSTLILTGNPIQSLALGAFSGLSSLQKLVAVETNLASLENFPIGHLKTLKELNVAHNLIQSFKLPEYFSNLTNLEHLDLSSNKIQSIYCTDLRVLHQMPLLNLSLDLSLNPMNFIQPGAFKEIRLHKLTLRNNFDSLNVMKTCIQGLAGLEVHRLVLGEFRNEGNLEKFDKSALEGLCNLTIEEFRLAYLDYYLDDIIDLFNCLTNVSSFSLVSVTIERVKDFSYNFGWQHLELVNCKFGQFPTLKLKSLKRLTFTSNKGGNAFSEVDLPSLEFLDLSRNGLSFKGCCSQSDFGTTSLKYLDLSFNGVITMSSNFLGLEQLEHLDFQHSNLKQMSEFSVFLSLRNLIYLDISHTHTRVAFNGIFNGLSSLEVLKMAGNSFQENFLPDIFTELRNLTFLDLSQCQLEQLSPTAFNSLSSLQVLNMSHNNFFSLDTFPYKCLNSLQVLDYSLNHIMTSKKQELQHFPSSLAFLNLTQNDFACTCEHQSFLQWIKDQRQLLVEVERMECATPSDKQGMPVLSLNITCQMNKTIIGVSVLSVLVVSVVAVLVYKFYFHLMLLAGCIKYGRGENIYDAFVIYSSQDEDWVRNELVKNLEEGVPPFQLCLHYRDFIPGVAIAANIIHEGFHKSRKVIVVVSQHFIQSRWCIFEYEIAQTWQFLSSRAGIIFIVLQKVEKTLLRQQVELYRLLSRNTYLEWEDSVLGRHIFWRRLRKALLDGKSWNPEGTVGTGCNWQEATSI
# Chain of UniProt Q9Y345 (whole entry, looked up): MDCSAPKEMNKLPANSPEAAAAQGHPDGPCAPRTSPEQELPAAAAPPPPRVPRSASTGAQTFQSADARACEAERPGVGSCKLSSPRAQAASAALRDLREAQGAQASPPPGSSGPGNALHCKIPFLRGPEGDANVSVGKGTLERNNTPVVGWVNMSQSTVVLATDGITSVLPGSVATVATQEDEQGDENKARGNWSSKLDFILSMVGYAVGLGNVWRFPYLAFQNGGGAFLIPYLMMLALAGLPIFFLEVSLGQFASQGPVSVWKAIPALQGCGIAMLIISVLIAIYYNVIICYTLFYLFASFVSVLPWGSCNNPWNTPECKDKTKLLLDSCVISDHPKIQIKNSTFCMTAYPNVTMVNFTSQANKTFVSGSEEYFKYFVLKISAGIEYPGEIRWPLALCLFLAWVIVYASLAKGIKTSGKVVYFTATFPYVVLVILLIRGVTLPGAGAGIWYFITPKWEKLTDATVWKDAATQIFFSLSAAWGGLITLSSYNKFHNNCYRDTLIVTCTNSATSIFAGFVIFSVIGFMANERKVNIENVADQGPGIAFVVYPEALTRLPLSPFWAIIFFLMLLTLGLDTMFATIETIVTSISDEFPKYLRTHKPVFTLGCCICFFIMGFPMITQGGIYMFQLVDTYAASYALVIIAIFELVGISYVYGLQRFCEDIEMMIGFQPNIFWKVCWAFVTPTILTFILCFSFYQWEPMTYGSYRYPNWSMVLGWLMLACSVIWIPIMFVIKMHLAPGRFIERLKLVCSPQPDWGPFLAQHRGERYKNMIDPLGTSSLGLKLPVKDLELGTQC
# Chain of UniProt P46089 (whole entry, looked up): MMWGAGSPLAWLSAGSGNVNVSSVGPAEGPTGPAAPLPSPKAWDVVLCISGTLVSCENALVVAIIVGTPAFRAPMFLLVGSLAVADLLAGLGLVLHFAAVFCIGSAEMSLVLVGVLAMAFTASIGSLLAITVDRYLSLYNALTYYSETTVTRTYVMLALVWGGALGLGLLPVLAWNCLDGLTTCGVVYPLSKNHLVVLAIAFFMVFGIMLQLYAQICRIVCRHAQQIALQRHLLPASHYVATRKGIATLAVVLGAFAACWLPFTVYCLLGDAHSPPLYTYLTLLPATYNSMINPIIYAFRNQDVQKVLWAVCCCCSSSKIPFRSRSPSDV
# Chain of UniProt Q8I2X3 (whole entry, looked up): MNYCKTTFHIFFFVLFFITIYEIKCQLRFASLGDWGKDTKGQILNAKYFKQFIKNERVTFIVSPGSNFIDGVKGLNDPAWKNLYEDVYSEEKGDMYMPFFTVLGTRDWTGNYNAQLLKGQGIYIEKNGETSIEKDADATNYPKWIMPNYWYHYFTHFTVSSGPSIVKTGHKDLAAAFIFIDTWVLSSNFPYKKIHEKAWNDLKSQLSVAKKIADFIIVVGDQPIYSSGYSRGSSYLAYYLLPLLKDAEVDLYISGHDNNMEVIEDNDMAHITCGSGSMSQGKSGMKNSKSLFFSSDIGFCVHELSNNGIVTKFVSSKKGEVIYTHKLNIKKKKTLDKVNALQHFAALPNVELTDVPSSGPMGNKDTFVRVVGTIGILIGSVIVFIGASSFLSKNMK
# Chain of UniProt P32320 (whole entry, looked up): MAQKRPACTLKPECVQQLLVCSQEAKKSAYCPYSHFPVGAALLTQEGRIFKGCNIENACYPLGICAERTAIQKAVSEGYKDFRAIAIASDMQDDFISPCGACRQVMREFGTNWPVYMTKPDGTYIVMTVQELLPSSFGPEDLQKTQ
Compound,tested on,test,system,setting,how to read,endpoint,value
O=C(O)Cc1cc2c(cc1C(=O)c1cccc(Br)c1)OCO2,Gria1/Gria2,whole-cell patch clamp,HEK-293T,"concentration not given, added: glutamate",,desensitization time constant,3.7 ± 0.3 ms
N=C(N)NCCS(=O)(=O)O,"Sodium- and chloride-dependent taurine transporter (SLC6A6, Homo sapiens, UniProt P31641, Y138A)","binding, microscale thermophoresis",,"122 nM, room temperature, added: 50 nM labelled protein",higher = more binding,normalised MST signal,0.0464
Fc1ccc(Nc2nc(NC3CCCCC3)c3ccccc3n2)cc1F,"Beta-2 adrenergic receptor (ADRB2, Homo sapiens, UniProt P07550, V152G)","β-arrestin2 recruitment, antagonist, BRET",,mutant V152G,reference: isoprenaline maximal response,maximal inhibition,6.6%
CCCCCCCCCCCCC/C=C/C=O,"Interferon-induced protein with tetratricopeptide repeats 3 (IFIT3, Homo sapiens, UniProt O14879)",competitive isoTOP-ABPP,"proteome, soluble, MDA-MB-231","100 µM, 60 min, added: iodoacetamide probe","reference: DMSO over compound-treated, higher = stronger cysteine blockade",isoTOP-ABPP competition ratio,1.3
COC(=O)[C@@]1(C)C=C(C(=O)Nc2cccc(C(=O)Nc3ccc(Nc4nccc(-c5cccnc5)n4)c(C)c3)c2)C(=O)CC1,MAPK8,"enzyme activity, inhibitor",,"0.1829 µM, 0 h, unit not given, added: GSH 10 mM pre-incubation",reference: vehicle,remaining activity,0.178
CC(C)[C@@H]1NC(=O)[C@H](Cc2ccccc2)NC(=O)CSC[C@@H](C(N)=O)NC(=O)[C@H](CCC(=O)O)NC(=O)[C@H](CO)NC(=O)[C@H](Cc2c[nH]c3cccc(Cl)c23)NC(=O)[C@H](C2CCCCC2)NC(=O)[C@H](C(C)C)NC(=O)[C@H](Cc2ccc(O)cc2)NC(=O)[C@H](CC(=O)O)NC(=O)[C@H](Cc2c[nH]c3ccccc23)NC(=O)[C@H](Cc2ccc(N)nc2)NC(=O)[C@H](Cc2c[nH]c3ccc(Cl)cc23)NC(=O)[C@H](CCC(=O)O)NC1=O,"Interleukin-1 receptor-like 2 (IL1RL2, Homo sapiens, UniProt Q9HB29)","IL-8 release, antagonist",A-431,"400 µM, 18 h, added: IL-36γ",reference: untreated,remaining activity,78%
COc1cc2nc(Cl)nc(Nc3ccc(Oc4cccc(-c5ccccc5)c4)cc3)c2cc1OC,"SMUG1 (Homo sapiens, UniProt Q53HV7)","enzyme activity, activator, fluorescence",,20 µM,reference: control,activity,860 ± 300%
NC(=NO)NCCC[C@H](N)C(=O)O,"Arginase (Schistosoma mansoni, UniProt Q6WVP6)",isothermal titration calorimetry,,,,stoichiometry first site,0.77 ± 0.03
O=C1c2sc(-c3ccc(N4CCC(CO)CC4)nc3F)nc2CCN1c1cccnc1,"Somatostatin receptor type 1 (SSTR1, Homo sapiens, UniProt P30872)","ligand displacement, radioligand",,1 µM,,inhibition,7%
C(=N\Nc1nc(Nc2ccccc2)nc(N2CCOCC2)n1)/c1c[nH]c2ccccc12,Trypanosoma cruzi,"reporter mRNA translation, inhibitor, measured: capped polyadenylated Renilla luciferase mRNA",cell-free extract,concentration not given,reference: control RNA,relative translation,100%
Cc1cc(-c2ccccc2)cc(C(=O)NNS(=O)(=O)c2ccccc2)c1F,"Histone acetyltransferase KAT5 (KAT5, Homo sapiens, UniProt Q92993)",SPR,,0.07 µM,higher = more binding,SPR binding response,0.11 RU
C[Si](C)(C)C[C@H](CN)CC(=O)O,"alpha1 adrenergic receptor, rat","binding, radioligand binding",,"250 µM, added: [3H]prazosin",,inhibition,-3%
COc1ccc(CCN(C)CCCC(C#N)(c2ccc(OC)c(OC)c2)C(C)C)cc1OC (centres unmarked),Trypanosoma cruzi,"reporter mRNA translation, inhibitor, measured: capped polyadenylated Renilla luciferase mRNA",cell-free extract,concentration not given,reference: control RNA,relative translation,97.3%
CC(C)C[C@@H]1NC(=O)C[C@@H](C(=O)N[C@@H](Cc2c[nH]c3ccccc23)C(=O)N[C@@H](CC(N)=O)C(=O)N[C@@H](C)C(=O)N2CCC[C@H]2C(=O)NCC(=O)N[C@@H](Cc2c[nH]c3ccccc23)C(=O)N[C@@H](Cc2ccccc2)C(=O)O)NC(=O)[C@H](C)NC(=O)[C@H](CCC(N)=O)NC(=O)[C@H](C(C)C)NC(=O)[C@H](C)NC(=O)[C@H](C(C)C)NC(=O)[C@H](C(C)C)NC1=O,"Toll-like receptor 4 (TLR4, Homo sapiens, UniProt O00206)","antagonist, ELISA",,"1 µg/mL, added: LPS","reference: DMSO control, lower means stronger antagonism",OD450 in LPS binding ELISA,0.508 a.u. and 0.489 a.u. and 0.469 a.u. and 0.45 a.u.
C#CCOC(=O)[C@@]1(C)C=C(C(=O)OC(C)(C)C)C(=O)CC1,MAPK8,"D-peptide binding, inhibitor, FP peptide displacement",,50 µM,lower is stronger displacement,fraction bound,0.491
OC[C@@H]1[C@@H](O)[C@H](O)[C@@H](O)c2nccn21,"bglA (Thermotoga maritima, UniProt Q08638)",ITC,,"pH 6.8, 25 °C",,-ΔS,13.6 ± 1.3 kJ/mol
O=C(O)Cc1cc2c(cc1C(=O)c1ccccc1)OCO2,Gria1/Gria2,"glutamate-evoked current, whole-cell patch clamp",HEK-293T,"concentration not given, weighted tau, 500 ms pulse, added: glutamate",,desensitization time constant,5.1 ± 0.3 ms
COc1ccc(CN2CC3CCCCN3C2=O)cc1 (centres unmarked),"Uridine nucleoside ribohydrolase (Trichomonas vaginalis, UniProt A2FTT0)",19F NMR,,"50 µM, added: 0.01% Triton X-100",,inhibition,71.1%
CCCCCC(O)/C=C/C=O (centres unmarked),"Cytidine deaminase (CDA, Homo sapiens, UniProt P32320)",competitive isoTOP-ABPP,"proteome, soluble, MDA-MB-231","100 µM, added: iodoacetamide probe","reference: DMSO over compound-treated, higher = stronger cysteine blockade",isoTOP-ABPP competition ratio,2.5
Cc1ccc2c(c1)C1CC(C)(N2)c2c(C)nc3ccc(C)cc3c21 (centres unmarked),"Glideosome-associated protein 50 (GAP50, Plasmodium falciparum, UniProt Q8I2X3)",surface plasmon resonance,,,,kon,16.9 M⁻¹ s⁻¹
CN(C)CCCSC(=S)N1CCN(C(=O)/C=C/c2coc3ccccc3c2=O)CC1,"Nucleoprotein (N, Tomato spotted wilt virus, UniProt P25999)","binding, microscale thermophoresis",,3.906 µM,dose series,normalised MST response,0.0404
CC(C)(C(=O)N1CCC(Nc2nc3c(c(=O)[nH]2)CCCC3)CC1)c1ccc(Cl)cc1,"MRGPRD (Homo sapiens, UniProt Q8TDS7, K102A)","miniGq recruitment, agonist, BRET",HEK293T,K102A mutant,,Hill slope,0.92
CC1=CC(C)=[N+]2C1=C(CCCN1CCC(O)(c3ccc(Cl)cc3)CC1)c1c(C)cc(C)n1[B-]2(F)F,Sodium- and chloride-dependent glycine transporter 2,MS binding competition,,10 µM,,remaining specific binding,66.8 ± 10.9%
CC(C)Oc1cc(Cl)ccc1CNc1cc(-c2ccccc2)nc2ncnn12,"G-protein coupled receptor 3, homodimer (GPR3, Homo sapiens, UniProt P46089)",BRET saturation,HEK-293T,10 µM,,homodimerization,no effect
O=C(O)Cc1cc2c(cc1C(=O)c1cccc(I)c1)OCO2,Gria1/Gria2,"glutamate-evoked current, whole-cell patch clamp",HEK-293T,concentration not given,reference: glutamate alone,current amplitude ratio,3.42 ± 0.2
CC(C=CC=C(C)C=CC1=C(C)CCCC1(C)C)=CC=O,"Rhodopsin (RHO, Homo sapiens, UniProt P08100, P23H)","immunostaining, measured: opsin",COS-7 transfected,"5.00 µM, unit not given",reference: surface over total stained cells,plasma membrane localization,0.27
O=C(NC1CCN(Cc2ccccc2)CC1)c1ccc(OCc2ccccc2)cc1,Sodium- and chloride-dependent glycine transporter 2,MS binding competition,,10 µM,,remaining specific binding,23.8 ± 1.3%
C=CC(=O)N1CCCC(n2c(=O)c3ncccc3n(Cc3ccc(Oc4ccccc4)cc3)c2=O)C1 (centres unmarked),"Calcium/calmodulin-dependent protein kinase type 1D (CAMK1D, Homo sapiens, UniProt Q8IU85)",thermal proteome profiling,cell proteome,unit not given,reference: vehicle,melting temperature shift,-10.2
CC(=O)c1cnc(NS(=O)(=O)c2ccc(C(F)(F)F)c(Cl)c2)nc1,"17-beta-hydroxysteroid dehydrogenase 13 (Homo sapiens, UniProt Q7Z5P4)",enzyme activity,"human hepatocytes, scramble siRNA, culture medium",96 h,reference: scramble siRNA control,oxidized product ratio,0.41 and 0.397 and 0.372 and 0.381

# A few entries again:
Compound,tested on,test,system,setting,how to read,endpoint,value
C#CCOC(=O)[C@@]1(C)C=C(C(=O)OC(C)(C)C)C(=O)CC1,MAPK8,"D-peptide binding, inhibitor, FP peptide displacement",,50 µM,lower is stronger displacement,fraction bound,0.491
CC1=CC(C)=[N+]2C1=C(CCCN1CCC(O)(c3ccc(Cl)cc3)CC1)c1c(C)cc(C)n1[B-]2(F)F,Sodium- and chloride-dependent glycine transporter 2,MS binding competition,,10 µM,,remaining specific binding,66.8 ± 10.9%
